Values quoted from earlier work as cited in several papers.
Each numbered part shows a few of the values that one paper quotes. “And” joins repeats or separate records; there may be more than shown. ± gives the spread as reported.

Study 1 — organism: SARS-CoV-2; effect on: cytopathic effect; cells: Caco-2; tested at: 10 µM
Structure (SMILES) | inhibition [%]
Oc1cc2c(cc1O)[C@@H]1c3ccc(O)c(O)c3OC[C@]1(O)C2 | -7.3
C[C@@H]1O[C@@H](O[C@@H]2[C@@H](O)[C@H](OCCc3ccc(O)c(O)c3)O[C@H](CO)[C@H]2OC(=O)/C=C/c2ccc(O)c(O)c2)[C@H](O)[C@H](O)[C@H]1O | -2.1
O=c1[nH]nc(Sc2ncc([N+](=O)[O-])s2)n1-c1ccc2c(c1)OCCO2 | -6.4
CCCCCCCCCCCCCCCC[n+]1ccn(Cc2ccccc2)c1C | 37.7
O=C(O)c1cc(N2N=C(C(F)(F)F)/C(=C/c3ccc(-c4ccccc4)o3)C2=O)ccc1Cl | 1.8
c1ccc2sc(SN3CCOCC3)nc2c1 | 64.6
O=c1cc(-c2ccccc2)oc2cc(O)c(O)c(O)c12 | -5.6
CCOc1ccc(Nc2nc(-c3c(C)nc4ccccn34)cs2)cc1 | 65.2
Nc1nc(-c2ccc(Cl)c(Cl)c2)c(-c2ccncc2)s1 | 2.6
CC(C)N(CCC(=O)c1ccc2ccccc2c1)Cc1ccccc1 | 4.8
COc1cc(C[C@@H]2NCCc3cc(O)c(O)cc32)cc(OC)c1OC | -3.2
CCc1ccc(/C=C/C(=O)Nc2ccc(C(C)=O)cc2)o1 | 42.4
O=NN(CCCl)C(=O)NC1CCCCC1 | -3.8
C=C1c2cccc(O)c2C(=O)C2=C(O)[C@]3(O)C(=O)C(C(N)=O)=C(O)[C@@H](N(C)C)[C@@H]3[C@@H](O)[C@H]12 | 9.1
CC(=O)[O][Hg][c]1ccccc1 | 46.4

Study 2 — organism: SARS-CoV-2; effect on: viral cytopathic effect; cells: Vero E6; tested at: 20 µM
SMILES | inhibition
O=C(c1cc(O)c(O)c(O)c1)c1ccc(O)c(O)c1O | -0.04%
CC(C)c1ccccc1Cc1cc(C(=O)Nc2ccc(S(=O)(=O)c3ccccc3C(C)(C)C)cc2)c(O)c(O)c1O | 10.3%
O=C1OC2(c3cc(I)c(O)c(I)c3Oc3c2cc(I)c(O)c3I)c2c(Cl)c(Cl)c(Cl)c(Cl)c21 | 2.67%
COc1cc(NC(C)CCCN)c2ncccc2c1 (stereo not drawn) | -0.14%

Single results of other studies
gag-pol C1203S/F1286D/F1332H integrase catalytic core domain: Gag-Pol polyprotein, integrase catalytic core domain (gag-pol, Human immunodeficiency virus 1, UniProt P12497, C1203S/F1286D/F1332H)
Compound | target or system | test | test system | conditions | endpoint | value
CC(C)(C)[C@H](NC(=O)C(F)(F)F)C(=O)N1C[C@H]2[C@@H]([C@H]1C(=O)N[C@H](C#N)C[C@@H]1CCNC1=O)C2(C)C | SARS-CoV-2 | viral replication | Vero | – | EC50 | 3.7 ± 0.1 µM
COc1cc2c(cc1NC(=O)c1ccc(C(C)(C)C)cc1)CCCC2 | chikungunya virus | viral replication | – | – | EC90 | 0.27 µM
COc1ccccc1-n1[se]c2ccccc2c1=O | SARS-CoV-2 papain-like protease | enzyme activity | – | with: 2 mM DTT | IC50 | 0.256 ± 0.035 µM
CN(Cc1ccccc1C(=O)NCC1CCCCC1)Cc1ccc2c(c1C(=O)O)OCO2 | gag-pol C1203S/F1286D/F1332H integrase catalytic core domain | binding, SPR | – | – | Kd | > 2000 µM
CCN(CC)CCCC(C)Nc1ccnc2cc(Cl)ccc12 (stereo not drawn) | SARS-CoV-2 | cytopathic effect | Vero E6 cells | 72 h | EC50 | 5.8 µM
CC[C@H](C)NC(=O)c1ccccc1CN(C)Cc1ccc2c(c1C(=O)O)OCO2 | gag-pol C1203S/F1286D/F1332H integrase catalytic core domain | binding, SPR | – | – | Kd | > 2000 µM
CC(C)(C#Cc1ccc(-c2ccc(Cl)c3c(NS(C)(=O)=O)nn(CC(F)(F)F)c23)c([C@H](Cc2cc(F)cc(F)c2)NC(=O)Cn2nc(C(F)(F)F)c3c2C(F)(F)[C@@H]2C[C@H]32)n1)S(C)(=O)=O | HIV-1 | viral replication | – | – | EC50 | > 10 µM
Nc1ccn(C[C@@H](CO)OCP(=O)(O)O)c(=O)n1 | Vaccinia virus | viral replication | HFF human foreskin fibroblasts, WR | – | IC50 | 18 µM and 28 µM
CC(=O)Oc1ccccc1C(=O)Nc1ncc([N+](=O)[O-])s1 | SARS-CoV-2 | cytopathic effect | Vero E6 cells | 72 h | EC50 | 6.3 µM
CCCCCCCCCCCCCCCCOCCOP(=O)(O)COC(CO)Cn1cnc(N)nc1=O (stereo not drawn) | Vaccinia virus | viral replication | HEL human embryonic lung fibroblasts, Lederle | – | IC50 | 0.037 µg/mL
COc1ccccc1NC(=O)c1ccccc1[Se][Se]c1ccccc1C(=O)Nc1ccccc1OC | SARS-CoV-2 papain-like protease | enzyme activity | – | with: 2 mM DTT | IC50 | 0.263 ± 0.121 µM

A few entries again (study 1):
Structure (SMILES) | inhibition [%]
CC(C)N(CCC(=O)c1ccc2ccccc2c1)Cc1ccccc1 | 4.8
COc1cc(C[C@@H]2NCCc3cc(O)c(O)cc32)cc(OC)c1OC | -3.2
O=NN(CCCl)C(=O)NC1CCCCC1 | -3.8
Oc1cc2c(cc1O)[C@@H]1c3ccc(O)c(O)c3OC[C@]1(O)C2 | -7.3
